Measurements gathered from unrelated publications.
Every numbered part comes from another study and shows a few of its results, in no order. “And” joins repeats or separate records; there may be more than shown.

Series 1
Cell line: HaCaT
Tested at: 100 µM
Time: 18 h
SMILES	viability [%]
COc1ccc(CN(C(=O)[C@@H](N)Cc2c(C)cc(C(N)=O)cc2C)[C@@H](C)c2nc(-c3ccccc3)c[nH]2)cc1C(=O)O	120
NCC(O)c1ccc(O)cc1 (stereo not shown)	107
CN(C(=O)/C=C/c1ccoc1)[C@@H]1CC[C@@]2(O)[C@H]3Cc4ccc(O)c5c4[C@@]2(CCN3CC2CC2)[C@H]1O5	96.5
C[C@@H](CO)NC(=O)[C@@H]1C=C2c3cccc4[nH]cc(c34)C[C@H]2N(C)C1	92.4
C/C=C(\C)C(=O)N[C@@H](c1ccccc1)[C@@H](O)C(=O)O[C@H]1C[C@@]2(O)[C@@H](OC(=O)c3ccccc3)[C@@H]3[C@]4(OC(C)=O)CO[C@@H]4C[C@H](O)[C@@]3(C)C(=O)[C@H](OC(C)=O)C(=C1C)C2(C)C	74.8

Series 2
SMILES: CNC(=O)c1ccc(-c2cnn3ccc(C(=O)N(C)c4ccc(Cl)c(C(=O)OC)c4)cc23)cc1
Organism: Cryptosporidium parvum
Host: neonatal calves
Dose: dose not given
Direction: direction not given
time	notes	fecal consistency score
day 6	second reading	2 and 1
day 5 post-treatment		1 and 2
day 2 post-treatment		1 and 3
day 4	first reading	2 and 1
day 6	first reading	2 and 1

Series 3
Organism: Plasmodium berghei
Action: inhibitor
Cells: Huh-7
Strain: GFP-expressing, liver stage
Tested at: 10 µM
Time: 24 h
Reference: untreated control
SMILES	infection rate
C=CCC1(C(C)CCC)C(=O)NC(=S)NC1=O (stereo not shown)	110%
O=C(CCCN1CCC2(CC1)C(=O)NCN2c1ccccc1)c1ccc(F)cc1	78.5%
C[C@]12CC[C@H]3[C@@H](CCC4=CC(=O)CC[C@@]43C)[C@@H]1CC[C@@H]2O	90.3%

Series 4
Cell line: mouse MPNST tumor cells
Technique: high-content immunofluorescence imaging
Measured: nuclear SOX9
Tested at: 10 µM
Time: 12 h
Notes: mean of 2 replicates
Reference: DMSO control
Direction: higher = more nuclear SOX9
Compound	nuclear SOX9 intensity
Fc1cc(F)c2c(c1)[C@H]1C=CC[C@H]1C(c1cccnc1)N2 (stereo partly shown)	106 % of DMSO
COC(=O)N1CCN(C(=O)Cc2ccc(Cl)c(Cl)c2)C(CN2CCCC2)C1 (stereo not shown)	99.6 % of DMSO
CC(C)(N)Cc1ccccc1	104 % of DMSO
CC(=O)NCCCOc1ccc(C(=O)N2CCC(N3C(=O)CCc4ccccc43)CC2)cc1	105 % of DMSO
COc1ccc(Cc2nccc3cc(OC)c(OC)cc23)cc1OC	109 % of DMSO
O=C(O)C1=CCCN(CCOC(c2ccc(C(F)(F)F)cc2)c2ccc(C(F)(F)F)cc2)C1	87.4 % of DMSO
O=C(c1ccc(-c2cccc(C(F)(F)F)c2)o1)N1CCN2CCC1CC2	150 % of DMSO
CC(C)(O)[C@H]1O[C@H]2CC[C@@]3(C)[C@@](O)(CC[C@H]4Cc5c([nH]c6ccccc56)[C@@]43C)C2=CC1=O	105 % of DMSO
CC(C)(C)NCC(O)c1cc(Cl)c(N)c(Cl)c1 (stereo not shown)	89.6 % of DMSO

Excerpt of the above (series 1):
SMILES	viability [%]
C[C@@H](CO)NC(=O)[C@@H]1C=C2c3cccc4[nH]cc(c34)C[C@H]2N(C)C1	92.4
